# Assay results from different studies.
# Organism: Staphylococcus aureus
Structure (SMILES),assay,system,conditions,MIC
CC[C@H](C)[C@@H]1NC(=O)[C@@H]([C@@H](C)O)NC(=O)CNC(=O)[C@H](CC(=O)O)NC(=O)CNC(=O)[C@H](CC(=O)O)NC(=O)CNC(=O)[C@H]2CCCCN2C(=O)[C@@H](NC(=O)[C@H](CC(=O)O)NC(=O)/C=C/CCCCCCCCCC(C)C)CNC(=O)[C@@H]2CCCN2C1=O,broth microdilution,"VISA LIM strain 2, Mueller-Hinton broth, Mg2+ 10 mg/L","16 h, together with: Ca2+ 0 mM",> 128 µg/mL
CC(C)C[C@H](NC(=O)[C@H](CCCCN)NC(=O)[C@H](CC(C)C)NC(=O)[C@H](CCCCN)NC(=O)C1CCCC=CCCC(NC(=O)[C@H](CCCCN)NC(=O)[C@H](CC(C)C)NC(=O)[C@H](CCCCN)NC(=O)[C@@H](N)CC(C)C)C(=O)N[C@@H](CCCCN)C(=O)N2CCC[C@@H]2C(=O)NCC(=O)N[C@@H](CCCCN)C(=O)N1)C(N)=O (stereo partly shown),broth microdilution,"ATCC 29737, Mueller-Hinton broth","18 h, 37 °C",64 µM
CN[C@H](CC(C)C)C(=O)N[C@H]1C(=O)N[C@@H](CC(N)=O)C(=O)N[C@H]2C(=O)N[C@H]3C(=O)N[C@H](C(=O)N[C@H](C(=O)NCc4cn(CC(=O)N[C@H](C(=O)N[C@@H](CCN)C(=O)N[C@H]5CCNC(=O)[C@H]([C@@H](C)O)NC(=O)[C@H](CCN)NC(=O)[C@H](CCN)NC(=O)[C@H](CC(C)C)NC(=O)[C@@H](CC(C)C)NC(=O)[C@H](CCN)NC5=O)[C@@H](C)O)nn4)c4cc(O)cc(O)c4-c4cc3ccc4O)[C@H](O)c3ccc(c(Cl)c3)Oc3cc2cc(c3O[C@@H]2O[C@H](CO)[C@@H](O)[C@H](O)[C@H]2O[C@H]2C[C@](C)(N)[C@H](O)[C@H](C)O2)Oc2ccc(cc2Cl)[C@H]1O,,VRSA 2 vanA,,13 µM
CCCCCCCC[C@H](NC(=O)[C@@H]1CSC([C@@H](N)[C@@H](C)CC)=N1)C(=O)N[C@H](CCC(=O)O)C(=O)N[C@H](C(=O)N[C@H]1CCCCNC(=O)[C@H](CC(N)=O)NC(=O)[C@@H](CC(=O)O)NC(=O)[C@H](Cc2c[nH]cn2)NC(=O)[C@@H](Cc2ccccc2)NC(=O)[C@H]([C@@H](C)CC)NC(=O)[C@@H](CCCN)NC1=O)[C@@H](C)CC,broth microdilution,"USA300 MRSA, LB medium",no added Zn2+,1 µg/mL
CC(=O)N[C@@H](CC(C)C)C(=O)N[C@H]1CSSC[C@@H](C(=O)N2CCC[C@H]2C(N)=O)NC(=O)[C@H]([C@@H](C)O)NC(=O)[C@H](C(C)C)NC(=O)[C@H]([C@@H](C)O)NC(=O)CNC(=O)[C@H](CC(C)C)NC(=O)[C@H](Cc2ccccc2)NC(=O)[C@H](Cc2ccc(O)cc2)NC(=O)[C@H](CC(C)C)NC(=O)[C@H](CCCCN)NC(=O)[C@H](Cc2ccccc2)NC(=O)[C@H](CCCNC(=N)N)NC(=O)[C@H](CCCCN)NC(=O)[C@H](CC(C)C)NC(=O)[C@H](CCCCN)NC(=O)[C@@H]2CCCN2C(=O)[C@H](CCCCN)NC(=O)[C@H](C(C)C)NC(=O)[C@H](CC(N)=O)NC(=O)[C@H](Cc2ccc(O)cc2)NC(=O)[C@H]([C@@H](C)O)NC1=O,broth dilution,laboratory strain,24 h,2.5 to 5 µM
CC[C@H](C)[C@H](NC(=O)[C@H](CCCNC(=N)N)NC(=O)[C@@H](NC(=O)[C@@H](NC(=O)[C@H](CCCNC(=N)N)NC(=O)[C@H](CCCCN)NC(=O)[C@H](Cc1ccccc1)NC(=O)[C@H](CCCNC(=N)N)NC(=O)[C@H](CCCCN)NC(=O)[C@@H](NC(=O)[C@@H](N)CCCCN)[C@@H](C)CC)[C@@H](C)CC)C(C)C)C(=O)N[C@@H](CCCCN)C(=O)N[C@@H](Cc1ccccc1)C(=O)N[C@@H](CC(C)C)C(=O)N[C@@H](CCCNC(=N)N)C(=O)N[C@H](C(=O)N[C@H](C(=O)N[C@@H](CCCNC(=N)N)C(=O)N[C@@H](CCCNC(=N)N)C(N)=O)C(C)C)C(C)C,broth microdilution,MRSA 109,,3.75 µg/mL
CCCCCCCCCCCCCC(=O)N[C@H]1C(=O)N[C@@H](CN)C(=O)N[C@@H](CO)C(=O)N[C@@H](Cc2ccc(O)cc2)C(=O)O[C@H]1C,,SH1000,"together with: phosphatidylcholine, molar ratio 1",2 µg/mL
CC[C@H](C)[C@@H]1NC(=O)[C@H](CO)NC(=O)C(C)(CCCCN)NC(=O)[C@@H]2CSSC[C@@H](C(=O)N[C@@H](Cc3ccc(O)cc3)C(N)=O)NC(=O)[C@H](CCCCN)NC(=O)[C@@H]3CSSC[C@H](NC(=O)[C@H](CCCNC(=N)N)NC(=O)C(C)(CC(C)C)NC(=O)[C@H](CC(=O)O)NC(=O)[C@H](CC(=O)O)NC(=O)[C@H](CCC(=O)O)NC(=O)[C@H](CC(N)=O)NC(=O)[C@H](Cc4c[nH]c5ccccc45)NC(=O)C(C)(CC)NC(=O)CNC(=O)[C@H](CC(N)=O)NC(=O)[C@@H](NC(=O)CNC(=O)[C@H](Cc4ccccc4)NC(=O)CN)CSSC[C@H](NC(=O)[C@H](Cc4ccc(O)cc4)NC(=O)CNC(=O)CNC(=O)[C@H](CCCCN)NC(=O)[C@H](Cc4ccc(O)cc4)NC(=O)[C@H]4CCCN4C(=O)[C@@H]4CCCN4C1=O)C(=O)N[C@@H](C)C(=O)N[C@@H](CCCCN)C(=O)N1CCC[C@@H]1C(=O)NCC(=O)N[C@@H](Cc1ccccc1)C(=O)N[C@@H](C(C)C)C(=O)N3)C(=O)N[C@@H](Cc1c[nH]cn1)C(=O)NC(C)(C)C(=O)N[C@@H](Cc1c[nH]cn1)C(=O)N2 (stereo partly shown),,"469, methicillin-resistant mecA, cation-adjusted Mueller Hinton broth","18 h, 37 °C",2 µM
Cc1ccc2[nH]c3c(c2c1)CCCC3NCCc1ccc(Br)cc1 (stereo not shown),broth microdilution,HG001 daptomycin-resistant,,4 µg/mL
CN[C@H](CC(C)C)C(=O)N[C@H]1C(=O)N[C@@H](CC(N)=O)C(=O)N[C@H]2C(=O)N[C@H]3C(=O)N[C@H](C(=O)N[C@H](C(=O)NCc4cn(CCCCC(=O)N[C@H](C(=O)N[C@@H](CCN)C(=O)N[C@H]5CCNC(=O)[C@H]([C@@H](C)O)NC(=O)[C@H](CCN)NC(=O)[C@H](CCN)NC(=O)[C@H](CC(C)C)NC(=O)[C@@H](CC(C)C)NC(=O)[C@H](CCN)NC5=O)[C@@H](C)O)nn4)c4cc(O)cc(O)c4-c4cc3ccc4O)[C@H](O)c3ccc(c(Cl)c3)Oc3cc2cc(c3O[C@@H]2O[C@H](CO)[C@@H](O)[C@H](O)[C@H]2O[C@H]2C[C@](C)(N)[C@H](O)[C@H](C)O2)Oc2ccc(cc2Cl)[C@H]1O,,MSSA ATCC 29213,,0.098 µM
CC[C@H](C)[C@H](NC(=O)[C@@H](CCCNC(=N)N)NC(=O)[C@H](CCCNC(=N)N)NC(=O)[C@@H]1CCCN1C(=O)[C@@H]1CCCN1C(=O)[C@H](CCCNC(=N)N)NC(=O)[C@@H]1CCCN1C(=O)[C@H](CCCNC(=N)N)NC(=O)[C@@H]1CCCN1C(=O)[C@H](CC(C)C)NC(=O)[C@H](Cc1ccc(O)cc1)NC(=O)[C@@H]1CCCN1C(=O)[C@@H]1CCCN1C(=O)[C@H](CCCCN)NC(=O)[C@H](CC(=O)O)NC(=O)[C@@H](N)C(C)C)C(=O)N[C@@H](Cc1ccc(O)c([N+](=O)[O-])c1)C(=O)N[C@@H](CC(N)=O)C(=O)N[C@H](CCCNC(=N)N)C(N)=O,broth microdilution,DSM 6247,"18 h, 37 °C, 25% MHB2",> 128 µg/mL
COc1ccc2ccc(O)c(/C=N/[C@H]3CCCC[C@H]3/N=C/c3ccccc3O)c2c1,"bacterial growth, broth microdilution",vancomycin-intermediate,,> 40 µM
C#CCNC(=O)[C@H]1NC(=O)[C@H]2NC(=O)[C@H](NC(=O)[C@@H]3NC(=O)[C@H](CC(N)=O)NC(=O)[C@H](NC(=O)[C@@H](CC(C)C)NC)[C@H](O)c4ccc(c(Cl)c4)Oc4cc3cc(c4O[C@@H]3O[C@H](CO)[C@@H](O)[C@H](O)[C@H]3O[C@H]3C[C@](C)(N)[C@H](O)[C@H](C)O3)Oc3ccc(cc3Cl)[C@H]2O)c2ccc(O)c(c2)-c2c(O)cc(O)cc21,,MRSA USA300,,0.336 µM

# Repeated from above:
Structure (SMILES),assay,system,conditions,MIC
CN[C@H](CC(C)C)C(=O)N[C@H]1C(=O)N[C@@H](CC(N)=O)C(=O)N[C@H]2C(=O)N[C@H]3C(=O)N[C@H](C(=O)N[C@H](C(=O)NCc4cn(CC(=O)N[C@H](C(=O)N[C@@H](CCN)C(=O)N[C@H]5CCNC(=O)[C@H]([C@@H](C)O)NC(=O)[C@H](CCN)NC(=O)[C@H](CCN)NC(=O)[C@H](CC(C)C)NC(=O)[C@@H](CC(C)C)NC(=O)[C@H](CCN)NC5=O)[C@@H](C)O)nn4)c4cc(O)cc(O)c4-c4cc3ccc4O)[C@H](O)c3ccc(c(Cl)c3)Oc3cc2cc(c3O[C@@H]2O[C@H](CO)[C@@H](O)[C@H](O)[C@H]2O[C@H]2C[C@](C)(N)[C@H](O)[C@H](C)O2)Oc2ccc(cc2Cl)[C@H]1O,,VRSA 2 vanA,,13 µM
CCCCCCCC[C@H](NC(=O)[C@@H]1CSC([C@@H](N)[C@@H](C)CC)=N1)C(=O)N[C@H](CCC(=O)O)C(=O)N[C@H](C(=O)N[C@H]1CCCCNC(=O)[C@H](CC(N)=O)NC(=O)[C@@H](CC(=O)O)NC(=O)[C@H](Cc2c[nH]cn2)NC(=O)[C@@H](Cc2ccccc2)NC(=O)[C@H]([C@@H](C)CC)NC(=O)[C@@H](CCCN)NC1=O)[C@@H](C)CC,broth microdilution,"USA300 MRSA, LB medium",no added Zn2+,1 µg/mL
